Experimental data gathered from unrelated publications.
“And” joins repeats or separate records; there may be more than shown. ± gives the spread as reported.

For `CSCC[C@H](NC(=O)[C@H](CC(C)C)NC(=O)CNC(=O)[C@H](Cc1ccccc1)NC(=O)[C@H](Cc1ccccc1)NC(=O)[C@H](CCC(N)=O)NC(=O)[C@H](CCC(N)=O)NC(=O)[C@@H]1CCCN1C(=O)[C@H](CCCCN)NC(=O)[C@@H]1CCCN1C(=O)[C@@H](N)CCCNC(=N)N)C(N)=O`, the EC25 was 15 ± 2.3 µM (rat peritoneal mast cells; histamine release; 10 min, 37 °C, with: 2 mM CaCl2).
Under “DMPK mRNA level”, `N=C(N)Nc1ccc(-c2nc3ccc(-c4ccc5nc(-c6ccc(NC(=N)N)cc6)[nH]c5c4)cc3[nH]2)cc1` is recorded as “no effect” (sample A patient fibroblasts; RT-qPCR; concentration not given).
`C=C1C(=O)O[C@H]2[C@H]1CCC(COC(=O)c1ccc(F)cc1)=C1CC[C@@](C)(O)[C@@H]12` gave a CC50 of 4.8 µM (M9-ENL1 leukaemia cells; annexin V/7-AAD flow cytometry; 24 h, 5% human plasma).
`COC1=C2CC(C)CC(OC)C(O)C(C)C3OC3(C)C(OC(N)=O)C(OC)C=CC=C(C)C(=O)NC(=CC1=O)C2=O` (stereo not drawn) — result for protein level: “increased” (SK-BR-3; Western blot, item: Hsp70 and Hsp90; concentration not given, 24 h).
For `C=C(CC(O)C(=O)O)C(=O)O` (racemic), “fold lower IC50” read roughly 4 fold (K562 TET2/TET3 knockout; baseline: parental K562).
`CCCCCN[C@H]1C=C[C@]2(O[C@H]([C@@H](CC)C(=O)[C@@H](C)[C@@H](O)[C@H](C)[C@@H]3O[C@@H]([C@@H](CC)C(=O)O)CC[C@@H]3C)[C@@H](C)C[C@H]2C)O[C@@]12CC[C@@](C)([C@H]1CC[C@](O)(CC)[C@H](C)O1)O2` has a selectivity ratio of 10.8 (HMLER CD24low/CD44high; cell viability, CellTiter-Blue; 72 h; baseline: IC50 HMLER CD24high/CD44low over CD24low/CD44high).
For `CC(=O)N[C@@H](CCCNC(=N)N)C(=O)N[C@@H](CCCNC(=N)N)C(=O)N[C@@H](CCCNC(=N)N)C(=O)N[C@@H](CCCNC(=N)N)C(=O)N[C@@H](CCCNC(=N)N)C(=O)N[C@@H](CCCNC(=N)N)C(=O)N[C@@H](CCCNC(=N)N)C(=O)N[C@@H](CCCNC(=N)N)C(=O)N[C@@H](CCCNC(=N)N)C(=O)N[C@@H](CCCNC(=N)N)C(=O)NCC(=O)N[C@@H](COP(=O)(O)O)C(=O)N1CCC[C@H]1C(=O)N[C@H](C(=O)N[C@@H](Cc1ccccc1)C(=O)O)[C@@H](C)O`, “reduction of HR activity” read roughly 40% (U2OS-DR; homologous recombination, GFP reporter; 100 µM, 2 h, then 48 h recovery).
With `CCC[P+](c1ccccc1)(c1ccccc1)c1ccccc1` the GI50 was 10.2 µM (A-375; cell growth or viability, MTT; 72 h).
Under “Bax protein level”, `CNC(=O)c1cc(Oc2ccc(NC(=O)c3ccc(-c4cccc(COC(=O)CCC(=O)OC5OC6OC7(C)CCC8C(C)CCC(C5C)C68OO7)c4)cn3)cc2)ccn1` (stereo not drawn) is recorded as “increased” (Huh-7; western blot; concentration not given, 48 h).
`C=CCc1cc(OC)c(OC)c(OC)c1OC` gave a GI50 of greater than 250 µM (A-375; cell growth or viability, MTT; 72 h).
The GI50 of `Cc1cccc(O)c1C(=O)OCC1(O)C(Nc2ccc3c(c2)Cc2ccccc2-3)C(N)C(NC(=O)N(C)C)(C(C)O)C1(C)O` (stereo not drawn) is reported as 1.37 µM (DU-145; cell growth or viability, SRB).
For `CC[C@H](C)[C@H](NC(=O)[C@H](CCC(=O)O)NC(=O)CNC(=O)[C@@H](NC(=O)[C@H](CC(C)C)NC(=O)[C@H](CC(C)C)NC(=O)[C@H](CC(C)C)NC(=O)[C@H](CC(C)C)NC(=O)[C@H](CS)NC(=O)[C@H](CO)NC(=O)[C@H](Cc1ccccc1)NC(=O)CNC(=O)[C@H](CCCNC(=N)N)NC(=O)[C@@H]1CCCN1C(=O)[C@H](C)NC(=O)[C@H](CCSC)NC(=O)CNC(=O)CNC(=O)[C@H](Cc1ccccc1)NC(=O)[C@H](CCCCN)NC(=O)[C@H](Cc1c(C)cc(O)cc1C)NC(=O)[C@H](N)CCCNC(=N)N)[C@@H](C)O)C(=O)N[C@@H](CC(=O)O)C(=O)N[C@@H](CC(C)C)C(=O)N1CCC[C@H]1C(=O)N[C@H](C(=O)N[C@@H](CCCCN)C(=O)N[C@@H](CCCNC(=N)N)C(=O)N[C@@H](CCCNC(=N)N)C(=O)N[C@@H](C)C(N)=O)C(C)C`, “Pearson correlation coefficient” read 0.58 (HT-22; 10 µM, 2 h, 37 °C, mitochondrial colocalisation, FITC-labelled).
With `CCOC(=O)CCCCC[C@@H]1NC(=O)[C@H]2CCCCN2C(=O)[C@H]([C@@H](C)CC)NC(=O)[C@H](Cc2c[nH]c3ccccc23)NC1=O` the H3K9 acetylation was roughly 2.1 fold increase (iPSC-derived neural progenitor cells; western blot; 1 µM, 18 h; baseline: vehicle).
`CCCc1cc2c(c(OC)c1OC)OCO2` has a GI50 of greater than 250 µM (T47D; cell growth or viability; 72 h).
`Cc1nc(C)c(C=[N+]([O-])C(C)(C)C)nc1C` gave a cell viability of 24.1% (primary rat midbrain neurons; MTT; 300 µM, with: MPP+; baseline: MPP+ alone, increase).
`C=C(C)C12OC3(c4ccccc4)OC1C1C(O)C(Br)(CO)C(O)C4(O)C(=O)C(C)=CC4C1(O3)C(C)C2OC(=O)c1ccccc1` (stereo not drawn) — result for protein level: “no effect” (C4-2B; immunoblotting, item: importin-β1; concentration not given, 24 h).
With `CC[C@H](C)[C@H](NC(=O)[C@H](Cc1ccccc1)NC(=O)[C@H](CC(=O)O)NC(=O)[C@H](CCCCN)NC(=O)[C@H](C)NC(=O)[C@H](CCCCN)NC(=O)[C@H](CC(N)=O)NC(=O)[C@H](CC(C)C)NC(=O)[C@H](Cc1c[nH]c2ccccc12)NC(=O)[C@H](CCC(=O)O)NC(=O)[C@H](CCCCN)NC(=O)[C@@H](NC(=O)CNC(=O)[C@H](C)N)[C@@H](C)O)C(=O)N[C@@H](CCCCN)C(=O)N[C@@H](CCC(=O)O)C(=O)N[C@@H](CCCCN)C(=O)NCC(=O)N[C@@H](CC(C)C)C(=O)NCC(=O)N[C@@H](CCSC)C(=O)N[C@@H](CC(C)C)C(=O)N[C@@H](CCCNC(=N)N)C(=O)N[C@@H](C)C(=O)N[C@@H](C)C(=O)N[C@@H](C)C(=O)N[C@@H](CC(N)=O)C(=O)N[C@@H](C)C(=O)N[C@@H](C)C(=O)N[C@@H](CC(C)C)C(=O)N[C@@H](CC(N)=O)C(=O)O` the EC50 was 12.1 µM and 12 to 25 µM (F11 cells; intracellular calcium, FLIPR; 0.1% BSA).
Under mRNA level, `CN1C(=O)C2(Cc3ccc(CC45SSC(CO)(C(=O)N4C)N(C)C5=O)cc3)SSC1(CO)C(=O)N2C` (racemic) is recorded as “no effect” (MCF7; microarray, item: TP53, CREB1, ETS2, GTF2F1, TAF10, TAF13; concentration not given, with: deferoxamine or hypoxia).
`CC(C)CC(O)(CC(C)C)c1cn(C(=O)N2CCCC2)nn1` gave an SILAC ratio of 2.65 ± 0.24 (mouse T-cells; N-terminal labeled proteins, N-terminal enrichment proteomics, item: SKP1A; 1 nM, 6 h; baseline: DMSO).
For `Cc1cc(Nc2nc(C[C@@]3(C(=O)O)CCN(Cc4cccc(Cl)c4F)[C@H](C)C3)cc(C)c2F)[nH]n1`, “lowest effective concentration” read 0.12 µM (NCI-H446; caspase-3/7 activity; 24 or 48 h; baseline: untreated).
`CCCc1cc(OC)c2c(c1)OCO2` has a GI50 of 116 µM (A-375; cell growth or viability, MTT; 72 h).
With `CC/C=C\C/C=C\C/C=C\C/C=C\C/C=C\C/C=C\CCC(=O)Nc1ccn(C2OC(CO)C(O)C2(F)F)c(=O)n1` (stereo not drawn) the CC50 was 56.6 µM (NCI-H23; NCI60 screen).
The GI50 of `CCCCCCCCC[P+](c1ccccc1)(c1ccccc1)c1ccccc1` is reported as 0.047 µM (T47D; cell growth or viability; 72 h).
With `COc1ccccc1/C=C/[N+](=O)[O-]` the CC50 was 1.26 µM (MV4-11; cell growth or viability; 72 h).

Some of these lines once more:
`COC1=C2CC(C)CC(OC)C(O)C(C)C3OC3(C)C(OC(N)=O)C(OC)C=CC=C(C)C(=O)NC(=CC1=O)C2=O` (stereo not drawn) — result for protein level: “increased” (SK-BR-3; Western blot, item: Hsp70 and Hsp90; concentration not given, 24 h).
For `Cc1cc(Nc2nc(C[C@@]3(C(=O)O)CCN(Cc4cccc(Cl)c4F)[C@H](C)C3)cc(C)c2F)[nH]n1`, “lowest effective concentration” read 0.12 µM (NCI-H446; caspase-3/7 activity; 24 or 48 h; baseline: untreated).
